Assay results collected from several papers.
± marks the error that the study gave.

With `CCCC[C@@H]1NC(=O)[C@@H](NC(=O)[C@H](CCC(=O)O)NC(=O)CNC(=O)CN2CCN(CC(=O)O)CCN(CC(=O)O)CCN(CC(=O)O)CC2)CCCCNC(=O)C[C@@H](C(N)=O)NC(=O)[C@H](C(C)C)NC(=O)[C@@H]2CCCN2C(=O)[C@H](CCCNC(=N)N)NC(=O)CNC(=O)[C@H](Cc2c[nH]c3ccccc23)NC(=O)[C@H](CCCNC(=N)N)NC(=O)[C@@H](Cc2ccccc2)NC(=O)[C@H](Cc2c[nH]cn2)NC(=O)[C@H](CCC(=O)O)NC1=O` [gallium-67 labelled] the tissue uptake was 0.09 ± 0.06 %ID/g (normal C57 mice, heart; intravenous, 0.037 MBq, 2 h).
With `O=C([O-])c1cccc(CN(CCN(Cc2cn(Cc3ccccc3)nn2)Cc2cccc(C(=O)[O-])n2)Cc2cn(Cc3ccccc3)nn2)n1.[64Cu+2]` the tissue uptake was 2.91 %ID/g (healthy athymic nude mice, heart; intravenous, 1 h).
For `O=C([O-])CN1CCN(CC(=O)[O-])CCN(CC(=O)NCCc2ccc3c(c2)C2C=CCC2C(c2cc4c(cc2Br)OCO4)N3)CCN(CC(=O)[O-])CC1.[111In+3]` (centres unmarked), the tissue uptake was 0.48 ± 0.02 %ID/g (mice with Hec50 tumour xenograft, Hec50 tumour; 4 h).
`O=C([O-])CN1CCN(CC(=O)[O-])CCN(CC(=O)[O-])CCN(CC(=O)[O-])CC1.[64Cu+2]` gave a tissue uptake of 0.71 %ID/g (healthy athymic nude mice, lung; intravenous, 24 h).
`CCCC[C@H](NC(=O)CNC(=O)CNC(=O)CN1CCN(CC(=O)O)CCN(CC(=O)O)CC1)C(=O)N[C@H]1CC(=O)NCCCC[C@@H](C(N)=O)NC(=O)[C@H](Cc2c[nH]c3ccccc23)NC(=O)[C@H](CCCNC(=N)N)NC(=O)[C@@H](Cc2ccccc2)NC(=O)[C@H](Cc2c[nH]cn2)NC1=O` [gallium-67 labelled] has a tissue uptake of 25.1 ± 1.03 %ID/g (female C57 mice, B16/F1 melanoma, tumor; intravenous, 0.037 MBq, 2 h).
With `NC12CNCCNCC(NCc3ccc(CNC(=O)CCCC(=O)NCc4ccc(-c5nncnn5)cc4)cc3)(CNCCNC1)CNCCNC2.[64Cu+2]` the tissue uptake was 0.29 ± 0.05 %ID/g (athymic nude mice, SW1222 xenograft, bone; 24 h post-injection, 24 h pretargeting interval, together with: huA33-TCO pretargeting).
With `CC(C)[C@H](NC(=O)[C@@H]1CCCN1C(=O)[C@H](CCCNC(=N)N)NC(=O)[C@H](CS)NC(=O)[C@H](Cc1c[nH]c2ccccc12)NC(=O)[C@H](CCCNC(=N)N)NC(=O)[C@@H](Cc1ccccc1)NC(=O)[C@H](Cc1c[nH]cn1)NC(=O)[C@H](CCC(=O)O)NC(=O)[C@H](CS)NC(=O)[C@H](CS)NC(=O)CNC(=O)[C@@H]1CC(=O)N[C@@H](CCCNC(=N)N)C(=O)NCC(=O)N[C@@H](CC(=O)O)C(=O)N[C@H](Cc2ccc(O)cc2)C(=O)N1)C(N)=O` [technetium-99m labelled] the tissue uptake was 15.5 ± 3.39 %ID/g (female mice, B16/F1 melanoma, kidneys; intravenous, dose not given, 2 h, together with: 10 µg NDP-MSH co-injected).
The tissue uptake of `CN1C(=O)[C@@H](Cc2ccc(O)c(I)c2)NC(=O)CNC(=O)[C@H](Cc2ccc3ccccc3c2)NC(=O)[C@H](CCCNC(=N)N)NC(=O)[C@H]1CCCNC(=O)c1ccc(CNC(=O)CN2CCN(CC(=O)O)CCN(CC(=O)O)CCN(CC(=O)O)CC2)cc1` [lutetium-177 labelled] is reported as 1.5 ± 0.6 %ID/g (item: 177Lu radioactivity; female CB-17 SCID mice, Daudi xenograft, adrenals; intravenous, 0.16 nmol per mouse, 1 h).
